Experimental data from different studies.
Parts stem from different laboratories: compare values within a part only.

Set 1
Target: Prothrombin, mature alpha-thrombin (F2, Homo sapiens, UniProt P00734)
Technique: aptamer microarray, sandwich
Molecule type: DNA with 2'F-ANA
Sample: in vitro
Concentration: 200 nM
Setting: whole 15-mer aptamer, many near background
With: Cy3 exosite-II aptamer, 400 nM
Reading: higher = stronger binding
Quantity: mean fluorescence intensity
Sequence: GGTTGGTGTGGTTGG
2'F-ANA at 1 2 3 4 5 7 12 13 14: 46.6 a.u.
2'F-ANA at 3 5 6 8 12: 254 a.u.
2'F-ANA at 1 2 3 4 7 8 10 11 14: 72.5 a.u.
2'F-ANA at 2 4 5 12 13 14 15: 47.8 a.u.
2'F-ANA at 2 12 13 15: 615 a.u.
2'F-ANA at 1 2 3 4 5 7 8 10 11 12 15: 52.6 a.u.
2'F-ANA at 1 3 6 8 11: 266 a.u.
2'F-ANA at 1 4 5 6 7 8 9 10 11 13 14: 50.7 a.u.
2'F-ANA at 2 4 5 7 11 13: 66.5 a.u.
2'F-ANA at 1 2 3 4 15: 316 a.u.
2'F-ANA at 3 5 7 9 11 12 13 14: 62.1 a.u.
2'F-ANA at 2 7 10 12: 192 a.u.
2'F-ANA at 1 2 3 7 9 11 14 15: 69.5 a.u.
2'F-ANA at 1 4 8 14: 52.8 a.u.
2'F-ANA at 1 2 4 6 8 9 11 12: 227 a.u.
2'F-ANA at 2 3 4 5 7 8 9 10 11 12 14: 49.3 a.u.
2'F-ANA at 2 5 7 10 12: 56.9 a.u.
2'F-ANA at 1 4 5 6 14 15: 46.7 a.u.
2'F-ANA at 2 4 6 13: 200 a.u.
2'F-ANA at 9 10 12 14: 121 a.u.
2'F-ANA at 2 3 6 7 10 14: 277 a.u.
2'F-ANA at 3 7 8 10 12 14: 428 a.u.
2'F-ANA at 2 3 4 5 6 7 8 10 12 15: 79.3 a.u.
2'F-ANA at 1 4 8 10 11: 57.1 a.u.
2'F-ANA at 1 2 3 5 7 8 10 11 12: 48 a.u.

Set 2
Target: TAR DNA-binding protein 43, full length, His tag (TARDBP, Homo sapiens, UniProt Q13148, residues 1-414)
Technique: RNA Bind-n-Seq
Molecule type: RNA
Sample: in vitro
Concentration: 20 nM
Setting: 6-mer, flanks averaged, single round
With: 150 mM KCl
Relative to: input library
Reading: higher = stronger binding
Quantity: 6-mer enrichment (R)
GUGGAA: 1.58
GAAAGG: 1.9
UGAUAU: 0.647
GUCCGC: 0.838
CAGAGG: 1.91
AGAGGU: 1.54
CACCCA: 0.717
AGGAGA: 1.56
UAAUUG: 0.672
AGGUAC: 0.814
UUAUAU: 0.624
CCAUCG: 0.668
CUCAAC: 0.576
GGCCUU: 0.934
GCGAGA: 1.56
UUGCUC: 0.583
CAAUAC: 0.621
GACUCU: 0.619
ACGUUC: 0.558
CAUAAU: 0.667
CUCACC: 0.602
UUGCCA: 0.653
UAUGGC: 0.825
UACGGG: 2.07
ACAUAU: 0.603

Set 3
Target: Interferon regulatory factor 3, full length, phosphomimetic (IRF3, Homo sapiens, UniProt Q14653, residues 1-427, S386D/S396D/S398D/S402D/T404D/S405D)
Technique: protein-binding microarray
Molecule type: double-stranded DNA, one strand shown
Sample: in vitro
Concentration: 2540 nM top
Setting: 60-bp whole probe
With: salmon DNA 0.4 mg/ml
Relative to: random background probes
Reading: higher = stronger binding
Quantity: fitted relative affinity
Constant ends, left off below: GCCTAGCAC … GTCTTGATTCGCTTGACGCTGCTG
Target sequence (chain): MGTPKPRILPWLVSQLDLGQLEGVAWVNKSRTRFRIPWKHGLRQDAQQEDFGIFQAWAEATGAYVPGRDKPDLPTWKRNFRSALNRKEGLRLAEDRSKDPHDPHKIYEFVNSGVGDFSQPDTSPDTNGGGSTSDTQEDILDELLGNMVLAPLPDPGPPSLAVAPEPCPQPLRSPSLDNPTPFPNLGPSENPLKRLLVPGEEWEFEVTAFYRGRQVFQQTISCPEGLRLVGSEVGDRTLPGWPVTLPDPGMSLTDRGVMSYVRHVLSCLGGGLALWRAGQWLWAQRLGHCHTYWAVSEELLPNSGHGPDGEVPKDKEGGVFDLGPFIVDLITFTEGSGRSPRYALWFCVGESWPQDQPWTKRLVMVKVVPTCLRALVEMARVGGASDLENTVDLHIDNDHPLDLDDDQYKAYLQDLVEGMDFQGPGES
TTAGGACTGGCTATCGGTTAGTGCTAG: -0.55 z-score
GACGCTTTCGGACTGGGGACGTGCTAG: 1.84 z-score
GACGGACTGCACTATCGGGACGTGCTA: -0.221 z-score
GACGATTTCGGGACTGGACACGTGCTA: 1.82 z-score
GACGGACTGGGTTTCGGGGCGTGCTAG: 0.438 z-score
GACGGTTGCGACACTGGGGACGTGCTA: 0.209 z-score
TTAGGACTGGGGTTTCGGATAGTGCTA: 1.55 z-score
AACGATTTCGGGACTGGAGACGTGCTA: 1.54 z-score
ATGTTTTGAGTTTTCCTTCAGTGCTAG: 1.76 z-score
GACGGTCTCGTTTTCGGGACGTGCTAG: 2.57 z-score
TTATGTATCGGACTGGGTTAGTGCTAG: 1.16 z-score
TTAGGACTGGATTTCGGTTAGTGCTAG: 0.857 z-score
GACGTACTGCTTCTCCTGACGTGCTAG: 0.0883 z-score
TTAGGTTTCGCGACTGGGTTAGTGCTA: 1.3 z-score
TTAGGTATGCTTCTCCTTTAGTGCTAG: 0.373 z-score
TACGGACTGGGGTTTCGGGACGTGCTA: 0.555 z-score
GACGGTTGCCTACTGCTGACGTGCTAG: 1.62 z-score
GACGATCTCAGGTTCGAGACGTGCTAG: 0.414 z-score
GACGGTCTCGGACTGGGGAGGTGCTAG: -0.00916 z-score
GACGGTATCGGGACTCGGGACGTGCTA: 1.55 z-score
TTCCCAATGGTCTTTCCACTTGTGCTA: 0.568 z-score
CCCACCATCTAGTTCTGCTTGTGCTAG: 0.464 z-score
GACGGTATCTTACTGCTGACGTGCTAG: 0.333 z-score
TTAGGTATCGGGTATCGGTTCGTGCTA: 2.68 z-score
TTAGCTCTCCTACTGCTTTAGTGCTAG: 0.28 z-score

Set 4
Target: Histone acetyltransferase KAT6A, winged helix 2, GST fusion (KAT6A, Homo sapiens, UniProt Q92794, residues 85-181)
Technique: protein binding microarray
Molecule type: double-stranded DNA, one strand shown
Sample: in vitro
Concentration: not given
Setting: 8-mer, flanks averaged, mean of 2 arrays, mostly near background
Relative to: not given
Reading: higher = stronger binding
Quantity: E-score
Residues (chain): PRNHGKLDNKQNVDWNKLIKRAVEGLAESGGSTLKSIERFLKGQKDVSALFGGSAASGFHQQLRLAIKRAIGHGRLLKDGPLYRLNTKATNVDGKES
AATTTCCT: 0.0641
TGGCGTAA: 0.112
ATTCGACG: 0.0246
GGAAATCA: 0.0987
CAAGTCCA: -0.0892
ATGAACAT: 0.112
ATTTCTGG: -0.17
GCGGGGAA: 0.104
CGAAATGC: -0.0196
GTGGGTTA: 0.0946
CGCGGCAC: 0.119
CATCCAAA: -0.0873
CGCCCTGC: 0.19
AGTATAGG: -0.164
CCAAATCG: -0.0395
CCACCTGG: 0.105
AAGCACCT: 0.0619
CCTATAGG: -0.156

Set 5
Target: Protein C-ets-1 (ETS1, Homo sapiens, UniProt P14921, residues 1-441, Y397A, full length assumed)
Technique: protein-binding microarray
Molecule type: double-stranded DNA, one strand shown
Sample: in vitro
Concentration: not given
Setting: k-mer, scored over probes, only values ≥0.25
Reading: higher = stronger binding
Quantity: E-score
Construct (chain): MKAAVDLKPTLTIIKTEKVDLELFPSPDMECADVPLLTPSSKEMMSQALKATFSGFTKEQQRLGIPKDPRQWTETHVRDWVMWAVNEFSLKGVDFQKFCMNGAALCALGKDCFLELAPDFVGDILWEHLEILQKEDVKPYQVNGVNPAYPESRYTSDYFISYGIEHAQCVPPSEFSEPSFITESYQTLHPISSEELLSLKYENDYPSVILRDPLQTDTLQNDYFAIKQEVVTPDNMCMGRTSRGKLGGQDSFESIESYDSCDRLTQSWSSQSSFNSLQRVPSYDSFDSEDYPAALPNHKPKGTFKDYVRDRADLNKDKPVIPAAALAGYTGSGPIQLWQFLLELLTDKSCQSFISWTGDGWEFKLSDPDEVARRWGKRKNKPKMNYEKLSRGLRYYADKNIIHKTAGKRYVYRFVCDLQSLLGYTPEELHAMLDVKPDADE
GCGCGGAA: 0.253
CGGTGACA: 0.259
ACAAACGT: 0.252
CGTTTGTC: 0.299
GTTCCGGA: 0.25
TATCAACA: 0.26
ACATATAC: 0.279
ACATGTAC: 0.349
ATATCCGA: 0.299
GCGGGGTA: 0.329
ATGGGGAA: 0.267
GTCGGAAA: 0.319
GACATACA: 0.317
CGACAATC: 0.366
ACGGTAAA: 0.261
GACATGTA: 0.315
CAATTGGC: 0.312
CGGAAATA: 0.337

Set 6
Target: Sal-like protein 4, full length isoform A (SALL4, Homo sapiens, UniProt Q9UJQ4, residues 1-1053)
UniProt Q9UJQ4, sequence (whole entry, looked up): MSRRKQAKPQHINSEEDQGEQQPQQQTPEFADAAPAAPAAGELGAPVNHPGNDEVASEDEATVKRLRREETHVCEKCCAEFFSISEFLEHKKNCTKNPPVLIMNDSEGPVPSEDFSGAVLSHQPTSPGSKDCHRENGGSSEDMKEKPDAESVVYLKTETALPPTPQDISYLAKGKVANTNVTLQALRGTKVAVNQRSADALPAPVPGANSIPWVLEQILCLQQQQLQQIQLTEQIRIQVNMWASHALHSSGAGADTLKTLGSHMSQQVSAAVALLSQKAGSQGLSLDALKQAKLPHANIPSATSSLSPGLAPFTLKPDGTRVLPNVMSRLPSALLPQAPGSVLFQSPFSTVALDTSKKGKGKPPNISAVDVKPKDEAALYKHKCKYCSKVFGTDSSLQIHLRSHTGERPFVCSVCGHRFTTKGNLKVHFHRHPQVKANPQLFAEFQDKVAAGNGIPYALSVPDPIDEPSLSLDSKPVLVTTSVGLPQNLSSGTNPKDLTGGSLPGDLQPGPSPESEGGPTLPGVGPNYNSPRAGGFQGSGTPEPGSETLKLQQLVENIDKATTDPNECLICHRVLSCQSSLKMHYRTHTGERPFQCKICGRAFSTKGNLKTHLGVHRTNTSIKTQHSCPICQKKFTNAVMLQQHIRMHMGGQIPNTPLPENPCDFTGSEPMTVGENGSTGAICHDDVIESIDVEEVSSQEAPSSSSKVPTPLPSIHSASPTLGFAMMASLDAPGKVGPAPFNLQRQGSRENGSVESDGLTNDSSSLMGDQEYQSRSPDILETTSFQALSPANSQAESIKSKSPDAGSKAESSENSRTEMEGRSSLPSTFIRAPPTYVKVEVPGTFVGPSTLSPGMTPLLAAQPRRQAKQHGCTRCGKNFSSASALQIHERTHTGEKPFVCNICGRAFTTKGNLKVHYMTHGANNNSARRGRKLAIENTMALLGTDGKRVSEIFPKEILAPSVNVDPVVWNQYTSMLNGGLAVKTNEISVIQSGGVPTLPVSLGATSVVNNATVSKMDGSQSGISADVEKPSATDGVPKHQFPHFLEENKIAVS
Technique: universal PBM
Molecule type: double-stranded DNA, one strand shown
Sample: in vitro
Concentration: 600 nM
Setting: 8-mer, flanks averaged, mean of replicates
Reading: higher = stronger binding
Quantity: E-score
ACTTTTCA: 0.156
AGTATGAG: 0.23
CCTGATTA: 0.122
CACCCCGG: -0.33
CCCCGGGA: -0.303
ACTGAGAG: -0.116
ACTGCCTG: -0.126
ACTTACCT: 0.0519
CCGCGGCA: -0.211
CCCGAAGC: -0.19
AGTGCTGC: -0.21
AAGCATTC: 0.115
CGTGACGC: -0.0621
GGCGACCC: -0.361
GTCCGCGA: -0.178
ACATTCAA: 0.11
CAACGACG: -0.133
CATTTGCC: -0.253
CCATCTCA: -0.109
GGACCACA: -0.0909
TCAATACA: 0.261
TACCCCAA: -0.162
ATCGTCGA: -0.111
CTACCGAC: -0.12
GTGGGAGA: -0.135

Excerpt of the above (set 4):
CAAGTCCA: -0.0892
CATCCAAA: -0.0873
AGTATAGG: -0.164
AAGCACCT: 0.0619
CCAAATCG: -0.0395
CCACCTGG: 0.105
TGGCGTAA: 0.112
ATGAACAT: 0.112
CCTATAGG: -0.156
